Assay results gathered from unrelated publications.
Each numbered part is a random draw from the data of one study; scales do not carry over between parts. Positions count from the first letter of the parent shown.
UniProt P41595, sequence (whole entry, looked up): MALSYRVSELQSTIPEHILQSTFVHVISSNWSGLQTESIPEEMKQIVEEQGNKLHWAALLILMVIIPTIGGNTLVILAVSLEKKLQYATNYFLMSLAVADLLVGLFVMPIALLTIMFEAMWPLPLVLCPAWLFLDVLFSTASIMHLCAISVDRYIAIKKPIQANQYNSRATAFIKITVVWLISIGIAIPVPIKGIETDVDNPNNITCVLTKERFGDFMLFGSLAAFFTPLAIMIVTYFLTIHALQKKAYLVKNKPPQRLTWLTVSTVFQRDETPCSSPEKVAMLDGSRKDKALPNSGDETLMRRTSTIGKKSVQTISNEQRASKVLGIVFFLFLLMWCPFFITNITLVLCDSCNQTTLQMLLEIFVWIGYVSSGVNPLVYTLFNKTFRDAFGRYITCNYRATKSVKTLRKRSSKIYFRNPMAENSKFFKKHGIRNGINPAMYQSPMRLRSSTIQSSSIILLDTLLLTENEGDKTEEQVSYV
UniProt Q9BUB5, sequence (whole entry, looked up): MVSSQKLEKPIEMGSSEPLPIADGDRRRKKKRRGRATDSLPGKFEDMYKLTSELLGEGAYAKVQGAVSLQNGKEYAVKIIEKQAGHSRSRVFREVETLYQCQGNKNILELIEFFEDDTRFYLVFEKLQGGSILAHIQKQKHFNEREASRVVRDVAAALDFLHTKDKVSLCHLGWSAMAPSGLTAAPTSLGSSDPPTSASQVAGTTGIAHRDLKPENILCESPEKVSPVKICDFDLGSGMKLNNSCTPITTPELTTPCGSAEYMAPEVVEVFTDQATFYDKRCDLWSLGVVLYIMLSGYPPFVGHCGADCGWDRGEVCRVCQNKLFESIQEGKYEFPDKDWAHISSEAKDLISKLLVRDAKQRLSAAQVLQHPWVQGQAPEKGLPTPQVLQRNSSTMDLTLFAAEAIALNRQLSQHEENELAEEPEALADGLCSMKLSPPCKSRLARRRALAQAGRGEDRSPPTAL

Study 1
Target: PABPC1L2, full length, GST fusion (mouse, UniProt A0ABA7IW68)
Method: RNAcompete
Form: RNA
Sample: in vitro
Concentration: 20 nM
Notes: 7-mer, probes averaged, single round
Baseline: mean of 7-mers
Direction: higher = stronger binding
Target sequence (chain): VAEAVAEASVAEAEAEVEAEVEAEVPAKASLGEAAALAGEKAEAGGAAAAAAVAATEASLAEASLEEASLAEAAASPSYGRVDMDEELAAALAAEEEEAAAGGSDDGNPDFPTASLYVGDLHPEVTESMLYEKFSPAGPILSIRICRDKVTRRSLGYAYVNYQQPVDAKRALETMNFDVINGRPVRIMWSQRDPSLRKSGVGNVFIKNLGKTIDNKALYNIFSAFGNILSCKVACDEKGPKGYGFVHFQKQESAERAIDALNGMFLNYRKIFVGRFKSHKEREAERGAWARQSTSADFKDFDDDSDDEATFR
| Oligonucleotide | 7-mer Z-score |
| --- | --- |
| UAUCGAC | -0.211 |
| GCACUUC | -0.242 |
| GAAUGAU | -0.13 |
| CGUCUCA | -0.364 |
| GAGGAAU | 0.108 |
| CCGACUA | -0.228 |
| GUAUUGG | 0.00979 |
| CGCCAUC | -0.353 |

Study 2
Substitution: R123S
Target: ABI1, truncated, D143A, DHFR fusion (Arabidopsis thaliana)
Method: DHFR PCA, deep sequencing
Sample: yeast
Notes: methotrexate growth selection, single substitutions
Baseline: wild-type fitted maximum
Direction: higher = stronger binding
Starting sequence: PYL1, truncated, DHFR fusion (Arabidopsis thaliana); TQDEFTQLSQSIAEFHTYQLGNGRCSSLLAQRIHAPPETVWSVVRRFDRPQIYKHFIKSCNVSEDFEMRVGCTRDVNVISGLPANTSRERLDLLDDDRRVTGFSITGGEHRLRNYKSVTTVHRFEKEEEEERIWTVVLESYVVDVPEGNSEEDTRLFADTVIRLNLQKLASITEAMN
| setting | relative binding score |
| --- | --- |
| added: (+)-ABA 1.4 µM | 75.7% |
| added: (+)-ABA 4.8 µM | 83.4% |
| added: (+)-ABA 0 µM | 46.3% |
| added: (+)-ABA 200 µM | 106% |
| added: (+)-ABA 0.032 µM | 49.4% |
| added: (+)-ABA 710 µM | 109% |

Single results of other studies
| Compound | target or system | assay | system | setting | how to read | measurement | value |
| --- | --- | --- | --- | --- | --- | --- | --- |
| O=C1C(Cl)=C(N2C(=O)CCC2=O)C(=O)c2ccccc21 | MKNK1 (Homo sapiens, UniProt Q9BUB5) | enzyme activity, inhibitor | – | 0.5 µM | baseline: control | remaining activity | 135% |
| CC(C)n1cnc(-c2ccc(F)cc2)c1-c1ncc(C(=O)Nc2ccc(N3CCN(C)CC3)cc2)[nH]1 | – | Olink proteomics, measured: A1BG | idiopathic pulmonary fibrosis patients, serum | 30 mg twice daily, week 12 | baseline: baseline | serum protein level change | 0.122 NPX |
| COc1cccc(NC(=O)c2nc3scc(CN(C)Cc4ccccc4)c3c(=O)[nH]2)c1 | HTR2B (Homo sapiens, UniProt P41595) | binding, radioligand binding | – | – | – | Ki | 1600 nM |

For quick reference, copied from above (study 1):
| Oligonucleotide | 7-mer Z-score |
| --- | --- |
| GAAUGAU | -0.13 |
